Assay results of several laboratories.
Numbers after ± are the reported error.

| Compound | system | conditions | Cmax |
| --- | --- | --- | --- |
| COc1cc(Nc2ncc3c(n2)-c2ccc(Cl)cc2C(c2c(F)cccc2OC)=NC3)ccc1C(=O)O | human, plasma | oral, 60 mg twice daily, day 7, steady state, geometric mean | 3.03 µM |
| Cc1ccc(NC(=O)c2ccc(CN3CCN(C)CC3)cc2)cc1Nc1nccc(-c2cncc(-c3oncc3C)c2)n1 | older healthy human adults, plasma | oral, 250 mg single dose, fed, mean | 7220 ng/mL |
| Cc1ccc(C(=O)NC2CC2)cc1-n1ncc(C(=O)c2cccc(C#N)c2)c1N | human, plasma | oral, 14 mg, geometric mean, added: azithromycin 500 mg daily for three days | 123 ng/mL |
| CCOc1cc([C@@H](CS(C)(=O)=O)N2C(=O)c3cccc(NC(C)=O)c3C2=O)ccc1OC | healthy human, both sexes, plasma | oral, 30 mg single dose, without rifampicin | 290 ng/mL |
| O=C(CCCCCCC(=O)Nc1ccccc1)NO | human, serum | oral, 1700 mg once daily | 6.15 µM |
| COc1ccnc(C[S+]([O-])c2nc3ccc(OC(F)F)cc3[nH]2)c1OC (stereo not drawn) | human, CYP2C19 intermediate metabolizers, plasma | oral, 40 mg/day, day 1 | 3940 ± 440 ng/mL |
| C=CC(=O)Nc1cc(Nc2ncc(C(=O)OC(C)C)c(-c3cn(C)c4ccccc34)n2)c(OC)cc1N(C)CCN(C)C | human, fasted | oral, 20 mg single dose, arithmetic mean | 3.3 ng/mL |
| O=C(Cc1cccc(OC(F)(F)F)c1)Nc1ccc(CCCCc2nnc(NC(=O)Cc3ccccn3)s2)nn1 | human patients, plasma | oral, 250 mg three times daily fasted, cycle 1 day 15 steady state | 914 ng/mL |
| CC[C@H](C)[C@@H]1NC(=O)[C@H](CCCNC(=N)N)NC(=O)[C@H](CC(=O)O)NC(=O)[C@H](CC(C)C)NC(=O)[C@H](CCCCN)NC(=O)[C@H](CC(C)C)NC(=O)CNC(=O)[C@H](Cc2ccccc2)NC(=O)[C@@H](NC(=O)CNC(=O)[C@H](CCCCN)NC(=O)[C@H](CO)NC(=O)[C@H](CC(C)C)NC(=O)CNC(=O)[C@H](CCCCN)NC(=O)[C@H](CCCCN)NC(=O)[C@H](CC(N)=O)NC(=O)[C@H](C)NC(=O)CNC(=O)[C@H](CCCCN)NC(=O)[C@H](Cc2ccc(O)cc2)NC(=O)[C@H](CCCCN)NC(=O)[C@H](CCCNC(=N)N)NC(=O)[C@H](C)NC(=O)[C@H](CC(N)=O)NC(=O)[C@@H]2CCCN2C(=O)[C@H](Cc2c[nH]cn2)NC(=O)[C@H](CCC(=O)O)NC(=O)[C@H](CCC(N)=O)NC(=O)CNC(=O)[C@@H]2CCCN2)CSSC[C@@H](C(=O)O)NC(=O)CNC(=O)[C@H](CC(C)C)NC(=O)CNC(=O)[C@H](CO)NC(=O)[C@H](CCSC)NC(=O)[C@H](CO)NC(=O)CNC1=O | human, plasma | subcutaneous, 15 µg/kg once daily, week 26 | 6.52 ng/mL |
| CO[C@H]1C[C@@H]2CC[C@@H](C)[C@@](O)(O2)C(=O)C(=O)N2CCCC[C@H]2C(=O)O[C@H]([C@H](C)C[C@@H]2CC[C@@H](OC(=O)C(C)(CO)CO)[C@H](OC)C2)CC(=O)[C@H](C)/C=C(\C)[C@@H](O)[C@@H](OC)C(=O)[C@H](C)C[C@H](C)/C=C/C=C/C=C/1C | human, whole blood | intravenous, 35 mg/m^2 weekly, cycle 1, median, added: valproic acid | 790 ng/mL |
| O=C([O-])CCCCCCCNC(=O)c1ccccc1O.[Na+] | human, moderate hepatic impairment, plasma | oral, once daily, day 10, after dose 10, geometric mean | 2360 ng/mL |
| Cn1ncc(Cl)c1-c1cc(C(=O)N[C@H](CN)Cc2ccc(F)c(F)c2)oc1Cl | human patients, plasma | oral, 20 mg, single dose, fasting | 14.6 ng/mL |
